Results pooled from the literature.
Each line is one published result; not all experiments were run side by side. Several values in a cell are separate wells, animals, samples, runs or records.
TDP1: Tyrosyl-DNA phosphodiesterase 1 (TDP1, Homo sapiens, UniProt Q9NUW8)
UniProt Q9NUW8, sequence (whole entry, looked up): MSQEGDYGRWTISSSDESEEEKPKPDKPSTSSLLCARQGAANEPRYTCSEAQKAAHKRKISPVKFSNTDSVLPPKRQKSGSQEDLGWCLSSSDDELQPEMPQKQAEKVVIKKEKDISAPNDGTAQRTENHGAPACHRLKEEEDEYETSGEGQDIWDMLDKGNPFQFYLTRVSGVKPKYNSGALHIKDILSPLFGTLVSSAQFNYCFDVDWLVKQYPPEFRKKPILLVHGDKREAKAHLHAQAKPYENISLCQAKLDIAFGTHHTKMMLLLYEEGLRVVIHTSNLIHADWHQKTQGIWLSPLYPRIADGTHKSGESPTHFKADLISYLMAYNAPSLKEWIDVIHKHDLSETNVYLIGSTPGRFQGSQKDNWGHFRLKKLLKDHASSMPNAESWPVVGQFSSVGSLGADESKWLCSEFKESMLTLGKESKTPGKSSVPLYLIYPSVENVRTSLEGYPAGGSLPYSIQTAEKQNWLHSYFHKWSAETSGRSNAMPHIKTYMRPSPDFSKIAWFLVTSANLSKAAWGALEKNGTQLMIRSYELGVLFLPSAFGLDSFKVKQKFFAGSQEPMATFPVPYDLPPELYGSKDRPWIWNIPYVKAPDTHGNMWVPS
JAK1: Tyrosine-protein kinase JAK1 (JAK1, Homo sapiens, UniProt P23458)
JAK1 JH2: Tyrosine-protein kinase JAK1, JH2 (JAK1, Homo sapiens, UniProt P23458)
JAK1 JH1: Tyrosine-protein kinase JAK1, JH1 (JAK1, Homo sapiens, UniProt P23458)
JAK1 JH2 pseudokinase domain: Tyrosine-protein kinase JAK1, JH2 pseudokinase domain (JAK1, Homo sapiens, UniProt P23458)

SMILES = Cc1nc2sccn2c1C=NOCc1ccc(-c2nc3cc(-c4ccccc4)ccn3c2Nc2ccc(C(=O)O)cc2)cc1; target = TDP1; test = enzyme activity, inhibitor; conditions = 100 µM, unpurified compound; endpoint = inhibition; result = 93%
SMILES = Cc1cccc(O[C@H]2CCC[C@@H](C(C)CNCc3ccncc3)C2)c1 (relative stereo); target = JAK1; test = kinase activity, kinome panel screening; conditions = 1 µM; endpoint = inhibition; result = -3%
SMILES = Cc1cnc2nc1Nc1cccc(c1)COC/C=C/COCc1cc(ccc1OCCN1CCOCC1)N2; target = JAK1 JH2; test = cell-free assay; conditions = 0.1 µM; endpoint = remaining signal; result = 58%
SMILES = CN1CCN(Cc2ccc(-c3ccc(CO[C@H]4CCC[C@@H]4NC(=O)c4cc(-c5cnn(C)c5)cnc4N)cc3)cc2)CC1; target = JAK1; test = enzyme activity, inhibitor; conditions = 0.1 µM; endpoint = inhibition; result = -10%
SMILES = Cc1nc2c(F)cc(-c3nc(Nc4ccc(CNC(=O)CCCCCCC(=O)NO)cc4)ncc3F)cc2n1C(C)C; target = JAK1 JH1; test = enzyme activity, inhibitor; conditions = 1 µM; endpoint = inhibition; result = 97%
SMILES = N[C@H]1CC[C@H](Nc2nccc(-c3cccnc3Oc3ccc(NC(=O)NC4CC4)c4ccccc34)n2)CC1; target = JAK1; test = kinobead competition pulldown; system = HEK293/HCT116 lysate mixture; conditions = 10 µM, 1 h, 4 °C; how to read = lower = stronger competition; endpoint = log2 LFQ intensity; result = 22 and 22.1 and 21.9
SMILES = COc1cc(Nc2nccc(-c3cnn4nc(OC)ccc34)n2)cc(C(F)(F)F)c1; target = JAK1 JH2; test = binding, competition with immobilised ligand; conditions = 1 µM; endpoint = remaining binding; result = 85%
SMILES = COc1c(Cl)cccc1Nc1c(-c2ccncc2C#C[C@@]2(C)CCCN2C(=O)/C=C/CN(C)C)[nH]c2c1C(=O)NCC2; target = JAK1 JH1; test = cell-free assay, competition with immobilised ligand; conditions = 3 µM; endpoint = remaining binding; result = 100%
SMILES = O=C(O)c1ccc(Nc2c(-c3ccc(CON=Cc4ccc(-c5ccccc5)cc4)cc3)nc3cc(-c4ccccc4)ccn23)cc1; target = TDP1; test = enzyme activity, inhibitor; conditions = 100 µM; endpoint = inhibition; result = 36.2%
SMILES = CNC1C[S+]2CC[S+]3CC[S+](C1)[Ru-4]321([N]=C=S)[n]2c3ccc(OC)cc3c3c4c(c5cc(F)c[n+]1c5c32)C(=O)NC4=O (stereo not shown); target = JAK1 JH2 pseudokinase domain; test = KinomeScan; conditions = 0.1 µM; how to read = baseline: untreated; endpoint = remaining binding; result = 98%
SMILES = CNC(=O)C[C@H](Cc1ccc(C#N)cc1)NC(=O)c1cc(-c2ccc(CN[C@H](C)c3ccc(C)cc3)o2)ccc1Cl; target = JAK1 JH1; test = enzyme activity, inhibitor; conditions = 1 µM; endpoint = activity vs control; result = 107%
SMILES = C=CC(=O)N1CCCC(n2c(=O)c3ncccc3n(Cc3ccc(Oc4ccccc4)cc3)c2=O)C1 (stereo not shown); target = JAK1 JH1; test = cell-free assay, competition with immobilised ligand; conditions = 1 µM; endpoint = remaining binding; result = 96%
SMILES = CC(C)=CC1OC(C)(C)C2C=C3C(=O)C(Cl)=CC(O)C3C3C(O)C4OC4C(=O)C132 (stereo not shown); target = JAK1 JH2; test = cell-free assay, competition with immobilised ligand; conditions = 10 µM; endpoint = remaining binding; result = 98%
SMILES = CCn1cc(C(=O)O)c(=O)c2c(N)c(F)c(NC3CCCCC3)cc21; target = Tyrosine-protein kinase JAK1, JH1-JH2 domains (JAK1, Homo sapiens, UniProt P23458); test = kinase activity; conditions = 0.1 µM, added: ATP at Km; endpoint = inhibition; result = 4%
SMILES = CS(=O)(=O)Nc1cccc(-c2csc3cnc(Nc4ccc(N5CCN(CCCCCOc6cccc7c6C(=O)N(C6CCC(=O)NC6=O)C7=O)CC5)cc4)nc23)c1 (stereo not shown); target = Tyrosine-protein kinase JAK1, JH1 kinase domain (JAK1, Homo sapiens, UniProt P23458); test = probe labelling, inhibitor, KiNativ chemoproteomics; system = MOLT-4; conditions = 1 µM; endpoint = inhibition; result = 94.3%
SMILES = Cc1c[nH]c2nccc(-c3ccc(C(=O)N[C@@H]4c5c(F)cc(C(F)F)cc5C[C@@H]4O)cn3)c12; target = JAK1 JH2; test = binding, competition with immobilised ligand; conditions = 3 µM; endpoint = remaining binding; result = 3.7%
SMILES = C=CC(=O)Nc1cccc(-c2cnc3[nH]cc(C(=O)NC(C)(C)C)c3n2)c1; target = JAK1; test = enzyme activity, inhibitor; conditions = 0.1 µM; endpoint = inhibition; result = 4%
SMILES = NC(=O)[C@@H](O)C[C@H]1CCc2sc3ncnc(O[C@H]4CC[C@H](N5CCOCC5)CC4)c3c21; target = JAK1; test = enzyme activity, inhibitor; conditions = 10 µM; endpoint = inhibition; result = -11%
SMILES = COc1ccc(C(=O)/C=C/c2ccccc2-c2c[nH]c3ccc(C#N)cc23)c(O)c1; target = JAK1; test = enzyme activity, inhibitor; conditions = 20 µM; endpoint = inhibition; result = -1%
SMILES = Nc1ncc2c(n1)-c1c([nH]c3ccc(C4=CCOCC4)cc13)CCC2; target = JAK1 JH2; test = binding, competition with immobilised ligand; conditions = 1 µM; endpoint = remaining binding; result = 92%
SMILES = CNC(=O)C1CCN(c2cc(C)c(F)cc2NC(=O)c2ccc(-c3cc(O)ccc3C)c(C)c2)CC1; target = JAK1 JH1; test = binding, competition with immobilised ligand; conditions = 1 µM; endpoint = remaining binding; result = 100%
SMILES = Cc1ccc(-c2c(/C=C(\C#N)C(=O)NC(C)C)n(CCCO)c3ncnc(N)c23)cc1; target = JAK1 JH1; test = cell-free assay, competition with immobilised ligand; conditions = 1 µM; endpoint = remaining binding; result = 100%
SMILES = C=CC(=O)N1CCc2ccc(-n3c(=O)ccc4cnc5ccc(-c6cnn(C)c6)cc5c43)cc21; target = JAK1 JH2 pseudokinase domain; test = KINOMEscan; conditions = 1 µM; how to read = baseline: DMSO control; endpoint = remaining binding; result = 100%
SMILES = C=CC(=O)N1Cc2nc(-c3cc(-c4cc(Cl)cnc4Cl)c(F)cc3F)n(-c3ccncn3)c2C1; target = JAK1; test = cell-free assay, inhibitor; conditions = 1 µM; endpoint = inhibition; result = -0.3%
SMILES = CCN1CCN(Cc2ccc(C(=O)Nc3ccc(C)c(NCc4cnc5[nH]ccc5c4OC)c3)cc2C(F)(F)F)CC1; target = JAK1 JH2; test = binding, competition with immobilised ligand; conditions = 1 µM; endpoint = remaining binding; result = 100%

Some of these lines once more:
SMILES = COc1c(Cl)cccc1Nc1c(-c2ccncc2C#C[C@@]2(C)CCCN2C(=O)/C=C/CN(C)C)[nH]c2c1C(=O)NCC2; target = JAK1 JH1; test = cell-free assay, competition with immobilised ligand; conditions = 3 µM; endpoint = remaining binding; result = 100%
SMILES = O=C(O)c1ccc(Nc2c(-c3ccc(CON=Cc4ccc(-c5ccccc5)cc4)cc3)nc3cc(-c4ccccc4)ccn23)cc1; target = TDP1; test = enzyme activity, inhibitor; conditions = 100 µM; endpoint = inhibition; result = 36.2%
